Published values from different studies.
± marks the error that the study gave.

Compound	test	test system	conditions	tissue uptake [%ID/g]
O=C([O-])CN1CCN(CC(=O)[O-])CCN(CC(=O)[O-])CCN(CC(=O)[O-])CC1.[64Cu+2]	–	healthy athymic nude mice, stomach	intravenous, 4 h	0.72
CCCC[C@H](NC(=O)CNC(=O)CNC(=O)CN1CCN(CC(=O)O)CCN(CC(=O)O)CC1)C(=O)N[C@H]1CC(=O)NCCCC[C@@H](C(N)=O)NC(=O)[C@H](Cc2c[nH]c3ccccc23)NC(=O)[C@H](CCCNC(=N)N)NC(=O)[C@@H](Cc2ccccc2)NC(=O)[C@H](Cc2c[nH]cn2)NC1=O [gallium-67 labelled]	–	female C57 mice, B16/F1 melanoma, lung	intravenous, 0.037 MBq, 0.5 h	3.71 ± 0.25
CC(C)[C@H](NC(=O)[C@@H]1CCCN1C(=O)[C@H](CCCNC(=N)N)NC(=O)[C@H](CS)NC(=O)[C@H](Cc1c[nH]c2ccccc12)NC(=O)[C@H](CCCNC(=N)N)NC(=O)[C@@H](Cc1ccccc1)NC(=O)[C@H](Cc1c[nH]cn1)NC(=O)[C@H](CCC(=O)O)NC(=O)[C@H](CS)NC(=O)[C@H](CS)NC(=O)CNC(=O)[C@@H]1CC(=O)N[C@@H](CCCNC(=N)N)C(=O)NCC(=O)N[C@@H](CC(=O)O)C(=O)N[C@H](Cc2ccc(O)cc2)C(=O)N1)C(N)=O [technetium-99m labelled]	–	C57 mice B16/F1 melanoma female, kidneys	iv, 0.037 MBq, 4 h	14.8 ± 5.41
N=C(N)NCCC[C@@H]1NC(=O)[C@H](CCCCNC(=O)CON=C[C@H](F)[C@@H](O)[C@H](O)[C@H](O)CO)NC(=O)[C@@H](Cc2ccc(O)cc2)NC(=O)[C@H](CC(=O)O)NC(=O)CNC1=O [fluorine-18 labelled]	–	nude mice U-87 MG tumour, kidney	intravenous, 0.5 h	4.75 ± 5.6
CCCC[C@H](NC(=O)CNC(=O)CNC(=O)CN1CCN(CC(=O)O)CCN(CC(=O)O)CCN(CC(=O)O)CC1)C(=O)N[C@H]1CC(=O)NCCCC[C@@H](C(N)=O)NC(=O)[C@H](Cc2c[nH]c3ccccc23)NC(=O)[C@H](CCCNC(=N)N)NC(=O)[C@@H](Cc2ccccc2)NC(=O)[C@H](Cc2c[nH]cn2)NC1=O [gallium-67 labelled]	–	female C57 mice, B16/F1 melanoma, liver	intravenous, 0.037 MBq, 24 h	0.54 ± 0.14
CCCC[C@H](NC(=O)CN1CCC(NC(=O)CN2CCN(CC(=O)O)CCN(CC(=O)O)CCN(CC(=O)O)CC2)CC1)C(=O)N[C@H]1CC(=O)NCCCC[C@@H](C(N)=O)NC(=O)[C@H](Cc2c[nH]c3ccccc23)NC(=O)[C@H](CCCNC(=N)N)NC(=O)[C@@H](Cc2ccccc2)NC(=O)[C@H](Cc2c[nH]cn2)NC1=O [gallium-68 labelled]	–	C57BL/6J mice male B16-F10 tumour, fat	2 h post injection, unblocked	0.2 ± 0.1
CC(C)[C@H](NC(=O)[C@@H]1CCCN1C(=O)[C@H](CCCNC(=N)N)NC(=O)[C@H](CS)NC(=O)[C@H](Cc1c[nH]c2ccccc12)NC(=O)[C@H](CCCNC(=N)N)NC(=O)[C@@H](Cc1ccccc1)NC(=O)[C@H](Cc1c[nH]cn1)NC(=O)[C@H](CCC(=O)O)NC(=O)[C@H](CS)NC(=O)[C@H](CS)NC(=O)[C@@H]1CC(=O)N[C@@H](CCCNC(=N)N)C(=O)NCC(=O)N[C@@H](CC(=O)O)C(=O)N[C@H](Cc2ccc(O)cc2)C(=O)N1)C(N)=O [technetium-99m labelled]	–	C57 mice B16/F1 melanoma female, pancreas	iv, 2 h, together with: NDP-MSH 10 µg co-injected	0.19 ± 0.11
NC12CNCCNCC(NCc3ccc(CNC(=O)CCCC(=O)NCc4ccc(-c5nncnn5)cc4)cc3)(CNCCNC1)CNCCNC2.[64Cu+2]	–	athymic nude mice SW1222 xenograft, lung	12 h post injection, 24 h accumulation interval, together with: huA33-TCO pretargeting	1.24 ± 0.22
CCCC[C@@H]1NC(=O)[C@@H](NC(=O)[C@H](CCC(=O)O)NC(=O)CNC(=O)CN2CCN(CC(=O)O)CCN(CC(=O)O)CCN(CC(=O)O)CC2)CCCCNC(=O)C[C@@H](C(N)=O)NC(=O)[C@H](C(C)C)NC(=O)[C@@H]2CCCN2C(=O)[C@H](CCCNC(=N)N)NC(=O)CNC(=O)[C@H](Cc2c[nH]c3ccccc23)NC(=O)[C@H](CCCNC(=N)N)NC(=O)[C@@H](Cc2ccccc2)NC(=O)[C@H](Cc2c[nH]cn2)NC(=O)[C@H](CCC(=O)O)NC1=O [gallium-67 labelled]	–	C57 mice with B16/F1 melanoma, brain	intravenous, 24 h	0.01
O=C([O-])CN1CCN(CC(=O)[O-])CCN(CC(=O)NCCc2ccc3c(c2)C2C=CCC2C(c2cc4c(cc2Br)OCO4)N3)CCN(CC(=O)[O-])CC1.[111In+3] (stereo not shown)	–	mice with Hec50 tumour xenograft, mammary gland	1 h	0.72 ± 0.24
O=C(NCC1OC2CCC=CCCC2O1)c1ccc([18F])nc1 (stereo not shown)	–	female BALB/c nude mice, liver	intravenous, 60 min	2.9 ± 0.4
CN1C(=O)[C@@H](Cc2ccc(O)c(I)c2)NC(=O)CNC(=O)[C@H](Cc2ccc3ccccc3c2)NC(=O)[C@H](CCCNC(=N)N)NC(=O)[C@H]1CCCNC(=O)c1ccc(CNC(=O)CN2CCN(CC(=O)O)CCN(CC(=O)O)CCN(CC(=O)O)CC2)cc1 [lutetium-177 labelled]	measured: 177Lu radioactivity	female CB-17 SCID mice, Daudi xenograft, pancreas	intravenous, 0.16 nmol per mouse, 96 h	0.07 ± 0.01
O=C([O-])c1cccc(CN(CCN(Cc2cn(Cc3ccccc3)nn2)Cc2cccc(C(=O)[O-])n2)Cc2cn(Cc3ccccc3)nn2)n1.[64Cu+2]	–	healthy athymic nude mice, blood	intravenous, 24 h	1.19

Excerpt of the above:
Compound	test	test system	conditions	tissue uptake [%ID/g]
O=C(NCC1OC2CCC=CCCC2O1)c1ccc([18F])nc1 (stereo not shown)	–	female BALB/c nude mice, liver	intravenous, 60 min	2.9 ± 0.4
